Measurements collected from several papers.
Each line is one published result; not all experiments were run side by side. Numbers after ± are the reported error.

SMILES | tested on | test | system | setting | scale | measurement | value
CC[C@H](C)[C@H](NC(=O)[C@H](Cc1ccccc1)NC(=O)[C@H](CC(=O)O)NC(=O)[C@H](CCCCN)NC(=O)[C@H](C)NC(=O)[C@H](CCCCN)NC(=O)[C@H](CC(N)=O)NC(=O)[C@H](CC(C)C)NC(=O)[C@H](Cc1c[nH]c2ccccc12)NC(=O)[C@H](CCC(=O)O)NC(=O)[C@H](CCCCN)NC(=O)[C@@H](NC(=O)CN)[C@@H](C)O)C(=O)N[C@@H](CCCCN)C(=O)N[C@@H](CCC(=O)O)C(=O)N[C@@H](CCCCN)C(=O)NCC(=O)N[C@@H](CC(C)C)C(=O)NCC(=O)N[C@@H](CCSC)C(=O)N[C@@H](CC(C)C)C(=O)N[C@@H](CO)C(=O)N[C@@H](C)C(=O)N[C@@H](C)C(=O)N[C@@H](C)C(=O)N[C@@H](CC(N)=O)C(=O)N[C@@H](C)C(=O)N[C@@H](C)C(=O)N[C@@H](CC(C)C)C(=O)N[C@@H](CC(N)=O)C(=O)O | HEK293 cells | intracellular calcium, FLIPR |  | 0.1% BSA |  | EC50 | > 100 µM
COC[C@@H](NC(C)=O)C(=O)NCc1ccc(-c2cccc(OC(F)(F)F)c2)cc1 | CAD | inhibitor |  | concentration not given |  | use-dependent Na+ current | decreased
C=C1C(=O)O[C@H]2[C@H]1CCC(COC(=O)c1ccc(C(F)(F)F)cc1C(F)(F)F)=C1CC[C@@](C)(O)[C@@H]12 | M9-ENL1 leukaemia cells | annexin V/7-AAD flow cytometry |  | 24 h, 5% human plasma |  | CC50 | 5.2 µM
CN1C(=O)C2(Cc3ccc(CC45SSC(CO)(C(=O)N4C)N(C)C5=O)cc3)SSC1(CO)C(=O)N2C (racemic) | MCF7 | microarray |  | 600 nM, ≥2-fold change, with: deferoxamine 300 µM | reference: deferoxamine alone | number of affected transcripts | 403
CCCCCCCCCCCCCCCC[P+](c1ccccc1)(c1ccccc1)c1ccccc1 | DU-145 | cell growth or viability, MTT |  | 72 h |  | GI50 | 1.11 µM
CC(C)CC(O)(CC(C)C)c1cn(C(=O)N2CCCC2)nn1 | mouse T-cells | SILAC proteomics, refers to: UQCRH |  | 1 nM, 6 h, unit not given | reference: DMSO | protein level | 0.9 ± 0.26
CSCC[C@H](NC(=O)[C@H](CC(C)C)NC(=O)[C@H](Cc1c[nH]cn1)NC(=O)CNC(=O)[C@@H](NC(=O)[C@H](C)NC(=O)[C@H](Cc1c[nH]c2ccccc12)NC(=O)[C@H](CCC(N)=O)NC(=O)c1ccc(NC(=O)CNC(=O)CCCCCN2C(=CC=C3CCCC(C=CC4=[N+](CCCCS(=O)(=O)[O-])c5ccc(S(=O)(=O)O)cc5C4(C)C)=C3Oc3ccc(S(=O)(=O)O)cc3)C(C)(C)c3cc(S(=O)(=O)O)ccc32)cc1)C(C)C)C(N)=O | HCC1937 | fluorescence microscopy |  | concentration not given |  | binding | no binding
CNC(=O)c1cc(Oc2ccc(NC(=O)c3ccc(-c4cccc(COC(=O)CCC(=O)OC5OC6OC7(C)CCC8C(C)CCC(C5C)C68OO7)c4)cn3)cc2)ccn1 (centres unmarked) | Huh-7 | annexin V/PI flow cytometry |  | 1.25 µM, 24 h |  | apoptotic cells | 6.9%
CCCc1cc(OC)c(OC)c(OC)c1OC | T47D | cell growth or viability |  | 72 h |  | GI50 | > 250 µM
C=CCc1ccc(OC(=O)COC(=O)Cn2cnc3c2c(=O)n(C)c(=O)n3C)c(OC)c1 | RAW264.7 | ELISA |  | 1 µM, with: LPS | reference: LPS alone | TNF-α reduction | 28.8%
COc1c(C)cc2c(c1OC)OCO2 | A-375 | cell growth or viability, MTT |  | 72 h |  | GI50 | > 250 µM
Cc1cccc(O)c1C(=O)OCC1(O)C(Nc2ccc3c(c2)Cc2ccccc2-3)C(N)C(NC(=O)N(C)C)(C(C)O)C1(C)O (centres unmarked) | OVCAR-3 | cell growth or viability, SRB |  |  |  | GI50 | 0.73 µM
CN(C)C=Nc1c(C#N)cnn1-c1ccc(F)c(Cl)c1 | Drosophila S2 cells | live imaging |  | 40 µM, added after contractile ring assembly |  | ring ingression | no effect
C[P+](c1ccccc1)(c1ccccc1)c1ccccc1 | T47D | cell growth or viability |  | 72 h |  | GI50 | 6.99 µM
CN[C@](C)(C[18F])C(=O)O | MDA-MB-468 tumour model |  | host not given, blood | 30 min, tumour-bearing |  | tracer uptake | 2 %ID/g
N=C(N)NCCC[C@H](N)C(=O)NCC(=O)N[C@@H](CC(=O)O)C(=O)O | NIH 3T3 fibroblasts |  | peptide-functionalised PEG-glass | concentration not given, 4 h |  | cell spreading area | 2440 ± 984 µm²
C#CCN[C@@H]1C=C[C@]2(O[C@H]([C@@H](CC)C(=O)[C@@H](C)[C@@H](O)[C@H](C)[C@@H]3O[C@@H]([C@@H](CC)C(=O)O)CC[C@@H]3C)[C@@H](C)C[C@H]2C)O[C@@]12CC[C@@](C)([C@H]1CC[C@](O)(CC)[C@H](C)O1)O2 | HMLER CD24low/CD44high | cell viability, CellTiter-Blue |  | 72 h | reference: IC50 HMLER CD24high/CD44low over CD24low/CD44high | selectivity ratio | 13.4
F[P-](F)(F)(F)(F)F.OCP(CO)CO.OCP(CO)CO.OCP(CO)CO.OCP(CO)CO.[Cu+] | DLD-1 | MTT |  | 72 h | reference: oxaliplatin | sensitivity ratio | 15 fold

SMILES | tested on | test | system | setting | scale | measurement | value
CCCCCCCCC[P+](c1ccccc1)(c1ccccc1)c1ccccc1 | DU-145 | cell growth or viability, MTT |  | 72 h |  | GI50 | 1.23 µM
N=C(N)Nc1ccc(-c2nc3ccc(-c4ccc5nc(-c6ccc(NC(=N)N)cc6)[nH]c5c4)cc3[nH]2)cc1 | FECD patient corneal endothelial cells |  |  | 10 µM |  | r(CUG)exp-MBNL1 foci per cell | 2.7 ± 0.3
CCCc1cc(OC)c2c(c1)OCO2 | A-375 | cell growth or viability, MTT |  | 72 h |  | GI50 | 116 µM
C[C@@H](O)[C@H](NC(=O)[C@H](CO)NC(=O)[C@H](CO)NC(=O)[C@@H](N)CCCCN)C(=O)N[C@@H](CCCNC(=N)N)C(=O)NCC(=O)N[C@@H](CCCNC(=N)N)C(=O)N[C@@H](CCCCN)C(=O)N[C@@H](CO)C(=O)N[C@@H](CO)C(=O)N[C@@H](CCCNC(=N)N)C(=O)N[C@@H](CCCNC(=N)N)C(=O)N[C@@H](CCCCN)C(=O)N[C@@H](CCCCN)C(=O)O | LAD2 | agonist |  | 10 µM, with: Escherichia coli LPS 100 µg/mL, 5 min preincubation |  | LPS effect on degranulation | no effect
CCOC(=O)CCCCC[C@@H]1NC(=O)[C@H]2CCCCN2C(=O)[C@H]([C@@H](C)CC)NC(=O)[C@H](Cc2c[nH]c3ccccc23)NC1=O | iPSC-derived neural progenitor cells | ELISA |  | 1 µM, 18 h | reference: vehicle | intracellular progranulin level | ~1.4 fold increase
CC(C)=CCC/C(C)=C/C[P+](c1ccccc1)(c1ccccc1)c1ccccc1 | A-375 | cell growth or viability, MTT |  | 72 h |  | GI50 | 0.221 µM
O=C(O)CCC(NP(=O)(O)OCCC[C@@H](NC(=O)CCC(NC(=O)CCCCCNC(=O)c1ccc([18F])cc1)C(=O)O)C(=O)O)C(=O)O (some centres unmarked) | CWR22Rv1 |  |  | 2 h |  | cell uptake | 2.28 ± 0.12%
CCNc1cc2[o+]c3cc(NCC)c(C)cc3c(-c3ccccc3C(=O)OCCOCC[18F])c2cc1C | rat cardiomyocytes |  |  | 1 min | reference: activity | uptake | 4.6 ± 0.7%
CC[C@@]1(O)C(=O)OCc2c1cc1n(c2=O)Cc2cc3cc(OC(=O)CCCC(=O)NCC(=O)N[C@@H](Cc4ccccc4)C(=O)N[C@@H](Cc4ccccc4)C(=O)N[C@@H](Cc4ccc(O)cc4)C(=O)NCCSSCCNC(=O)CCC(=O)N[C@@H](CCC(=O)O)C(=O)N[C@@H](CCCNC(=N)N)C(=O)NCC(=O)N[C@@H](CC(=O)O)C(=O)O)ccc3nc2-1 | HepG2 spheroids | confocal microscopy |  | 100 µM, 6 h |  | penetration depth | ~50 µm
O=C(c1cccc(I)c1)N1CCN(C(=O)c2cc(Cc3n[nH]c(=O)c4ccccc34)ccc2F)CC1 [iodine-123 labelled] | HCT-116 p53-/- | cell viability, Alamar Blue |  | 4 days |  | EC50 | 0.022 µM
COC(=O)[C@H](CC(C)C)NC(=O)[C@@H]1CCCN1C(=O)[C@@H](NC(=O)[C@H](CCC(=O)C=[N+]=[N-])NC(=O)OCc1ccccc1)C(C)C | wild-type human myoblasts |  |  | 50 µM, 2 h |  | PGC-1α mRNA level | increased
Cc1cc(C)c(N2CCN(c3c(C)cc(C)cc3C)C2=[Se])c(C)c1.[Cl][Au] | PSN1 | cell growth or viability, MTT |  | 72 h |  | IC50 | 2.8 µM
C=C(C)C12OC3(c4ccccc4)OC1C1C(O)C(Br)(CO)C(O)C4(O)C(=O)C(C)=CC4C1(O3)C(C)C2OC(=O)c1ccccc1 (centres unmarked) | C4-2B | immunoblotting, refers to: importin-β1 |  | concentration not given, 24 h |  | protein level | no effect
CCCc1cc2c(c(OC)c1OC)OCO2 | T47D | cell growth or viability, MTT |  | 72 h |  | GI50 | 116 µM
[Cl][Ag].[Se]=c1n(C2CCCCC2)ccn1C1CCCCC1 | A2780 ADR | MTT |  |  | reference: A2780 ADR over A2780 | resistance factor | 1.1
CC/C=C\C/C=C\C/C=C\C/C=C\C/C=C\C/C=C\CCC(=O)Nc1ccn(C2OC(CO)C(O)C2(F)F)c(=O)n1 (centres unmarked) | NCI-H322M | NCI60 screen |  |  |  | CC50 | 46 µM
CCCCN(CCCC)[C@H]1C=C[C@]2(O[C@H]([C@@H](CC)C(=O)[C@@H](C)[C@@H](O)[C@H](C)[C@@H]3O[C@@H]([C@@H](CC)C(=O)O)CC[C@@H]3C)[C@@H](C)C[C@H]2C)O[C@@]12CC[C@@](C)([C@H]1CC[C@](O)(CC)[C@H](C)O1)O2 | HMLER CD24low/CD44high | cell viability, CellTiter-Blue |  | 72 h | reference: IC50 HMLER CD24high/CD44low over CD24low/CD44high | selectivity ratio | 7.6

Repeated from above:
SMILES | tested on | test | system | setting | scale | measurement | value
CCCc1cc2c(c(OC)c1OC)OCO2 | T47D | cell growth or viability, MTT |  | 72 h |  | GI50 | 116 µM
F[P-](F)(F)(F)(F)F.OCP(CO)CO.OCP(CO)CO.OCP(CO)CO.OCP(CO)CO.[Cu+] | DLD-1 | MTT |  | 72 h | reference: oxaliplatin | sensitivity ratio | 15 fold
